{"data": "Measurements of several laboratories", "note": "Lines come from different studies, so protocols differ. ± marks the error that the study gave."}
{"Compound": "NC(=O)[C@@H](CCCCNC(=O)CNC(=O)CCC(=O)NCCc1c[nH]cn1)NC(=O)[C@@H](Cc1ccc(O)cc1)NC(=O)[C@@H](CCCCNC(=O)CNC(=O)CCC(=O)NCCc1c[nH]cn1)NC(=O)Cc1ccc(CN2CCN(CC(=O)O)CCN(CC(=O)O)CC2)cc1 [fluorine-18 labelled]", "test system": "tumour-bearing nude mice", "conditions": "intravenous, 1 h, TF2 pretargeting", "how to read": "reference: tumour over blood", "quantity": "tissue ratio", "result": "110 ± 43"}
{"Compound": "COC(=O)C[C@](O)(CCCC(C)(C)OC(C)=O)C(=O)O[C@@H]1C(OC)=C[C@]23CCCN2CCc2cc4c(cc2[C@H]13)OCO4", "test system": "CD1 mice, esophagus", "conditions": "oral, 1 mg/kg, 8 h", "quantity": "tissue concentration", "result": "not detected"}
{"Compound": "COc1cc(C(=O)NCCOCCOCCOCCNC(=O)c2ccc([18F])nc2)ccc1NC(=O)C1NC(CC(C)(C)C)C(C#N)(c2ccc(Cl)cc2F)C1c1cccc(Cl)c1F (stereo not shown)", "test system": "athymic male mice, HepG2 xenograft, large intestine", "conditions": "2 h", "quantity": "tissue uptake", "result": "16.3 ± 2.63 %ID/g"}
{"Compound": "C[C@]12CC[C@H](OCC[18F])C[C@H]1CC[C@@H]1[C@@H]2CC[C@]2(C)[C@@H](c3ccc(=O)oc3)CC[C@]12O", "test system": "male BALB/c nude mice, HepG2 xenograft, liver", "conditions": "intravenous, 7.4 MBq, 240 min", "quantity": "tissue uptake", "result": "7.51 ± 1.17 %ID/g"}
{"Compound": "CC(C)C[C@H]1NC(=O)[C@H](NC(=O)CN)CSSC[C@H]2NC(=O)[C@H]3CSSC[C@H](C(=O)N[C@H](CC(N)=O)C(=O)N[C@H](Cc4ccccc4)C(=O)N[C@H](CO)C(=O)N[C@H](Cc4ccccc4)C(N)=O)NC(=O)[C@@H](CC(C)C)NC(=O)[C@@H](CCCCN)NC(=O)[C@@H](Cc4ccccc4)NC(=O)[C@@H](CC(C)C)NC(=O)[C@@H](CCCCN)NC(=O)[C@@H](CO)NC(=O)[C@@H](CSSC[C@@H](NC(=O)[C@@H](CCCCN)NC(=O)[C@@H](Cc4c[nH]c5ccccc45)NC(=O)[C@@H](Cc4c[nH]c5ccccc45)NC(=O)[C@@H](Cc4ccccc4)NC(=O)[C@@H](CCC(=O)O)NC1=O)C(=O)N[C@H](CC(N)=O)C(=O)N1CCC[C@@H]1C(=O)N[C@H](CC(N)=O)C(=O)N[C@H](CC(=O)O)C(=O)N[C@H](CC(=O)O)C(=O)N[C@H](CCCCN)C(=O)N3)NC(=O)[C@@H](CCCCN)NC(=O)[C@@H](CC(C)C)NC(=O)[C@@H](CCCCN)NC(=O)[C@H]1CCCN1C(=O)[C@@H](CCCNC(=N)N)NC2=O", "test": "LC-MS/MS", "test system": "D2.mdx mice, muscle", "conditions": "subcutaneous, dose not given", "quantity": "tissue concentration at chronic dosing", "result": "500 to 2000 nM"}
{"Compound": "CCCC[C@H](NC(=O)CN1CCC(NC(=O)CN2CCC(NC(=O)CN3CCN(CC(=O)O)CCN(CC(=O)O)CCN(CC(=O)O)CC3)CC2)CC1)C(=O)N[C@H]1CC(=O)NCCCC[C@@H](C(N)=O)NC(=O)[C@H](Cc2c[nH]c3ccccc23)NC(=O)[C@H](CCCNC(=N)N)NC(=O)[C@@H](Cc2ccccc2)NC(=O)[C@H](Cc2c[nH]cn2)NC1=O [gallium-68 labelled]", "test system": "C57BL/6J mice male B16-F10 tumour, heart", "conditions": "1 h post injection, unblocked", "quantity": "tissue uptake", "result": "0.2 %ID/g"}
{"Compound": "[3H]c1sc(C)nc1C=C(C)C1CC2C(CCCC(C)C(O)C(C)C(=O)C(C)(C)C(O)CC(=O)O1)N2CCO (stereo not shown)", "test": "LC-MS/MS", "test system": "CD2F1 mice tumour-bearing, heart", "conditions": "intravenous, 2.2 nmol/kg, 6 h", "quantity": "tissue concentration", "result": "610 ± 170 ng/g"}
{"Compound": "COc1ccc(C)cc1NC(=O)OC1CC2CCCC(C1)N2Cc1ccc(CC[18F])cc1 (stereo not shown)", "test system": "BALB/c mice, EMT6 tumour, liver", "conditions": "5 min", "quantity": "tissue uptake", "result": "21.1 ± 3.59 %ID/g"}
{"Compound": "C/C=C/C=C/C/C=C/CCCCCCCc1cccc(O)c1O", "test system": "female Kunming mice, tumour-bearing, spleen", "conditions": "intravenous, 10 mg/kg, 8 h", "quantity": "tissue concentration", "result": "5850 ± 740 ng/g"}
{"Compound": "CCCC[C@H](NC(=O)CCOCCOCCNC(=O)CN1CCN(CC(=O)O)CCN(CC(=O)O)CCN(CC(=O)O)CC1)C(=O)N[C@H]1CC(=O)NCCCC[C@@H](C(N)=O)NC(=O)[C@H](Cc2c[nH]c3ccccc23)NC(=O)[C@H](CCCNC(=N)N)NC(=O)[C@@H](Cc2ccccc2)NC(=O)[C@H](Cc2c[nH]cn2)NC1=O [gallium-68 labelled]", "test system": "C57BL/6J mice male B16-F10 tumour, fat", "conditions": "1 h post injection, unblocked", "quantity": "tissue uptake", "result": "0.1 ± 0.1 %ID/g"}
{"note": "Repeated from above:"}
{"Compound": "COC(=O)C[C@](O)(CCCC(C)(C)OC(C)=O)C(=O)O[C@@H]1C(OC)=C[C@]23CCCN2CCc2cc4c(cc2[C@H]13)OCO4", "test system": "CD1 mice, esophagus", "conditions": "oral, 1 mg/kg, 8 h", "quantity": "tissue concentration", "result": "not detected"}
